Assay results from different studies.
Lines come from different studies, so protocols differ. Several values in a cell are separate wells, animals, samples, runs or records. ± marks the error that the study gave.

SMILES	test	test system	setting	tissue uptake
O=C([O-])CN1CCN(CC(=O)[O-])CCN(Cc2cccc(C(=O)[O-])n2)CC1.[44Sc+3]	–	BALB/c mouse, small intestine	intravenous, 1 h	0.38 ± 0.08 %ID/g
COc1cccc(OC)c1-c1cc(C(=O)NC2(C(=O)O)C3CC4CC(C3)CC2C4)nn1-c1ccc(C(=O)N(C)CCOCCOCCN(C)C(=O)[C@H](CCCCNC(=O)[C@H](CC(C)C)NC(=O)C2OC2C(=O)O)NC(=O)CN2CCN(CC(=O)[O-])CCN(CC(=O)[O-])CCN(CC(=O)[O-])CC2)cc1C(C)C.[177Lu+3] (mixture of isomers)	–	mouse, HT-29 xenograft, spleen	168 h post injection	0.59 %ID/g
COc1ccc(Nc2nc(Nc3ccc(OCCOCCOCC[18F])cc3)ncc2Br)cc1	–	ICR mouse, S180 sarcoma-bearing, blood	intravenous, 370 kBq in 100 µL, 60 min	2.35 ± 0.22 %ID/g
Cc1n[nH]c(C)c1CCCOc1cc(C(=O)NCCCCC(NC(=O)CN2CCN(CC(=O)[O-])CCN(CC(=O)[O-])CCN(CC(=O)[O-])CC2)C(=O)NCC2CCC(C(=O)NC(Cc3ccc4ccccc4c3)C(=O)NCCCCC(NC(=O)NC(CCC(=O)O)C(=O)O)C(=O)O)CC2)ccc1F.[68Ga+3] (stereo not drawn)	PET/CT	mouse 22Rv1 xenograft, kidney	1 h	29.5 ± 6.32 %ID/g
N#C[C@@H]1CC(F)(F)CN1C(=O)CNC(=O)c1ccnc2c(NC(=O)CCOCCOCCOCCOCCOCCOCCNC(=O)[C@H](CCCCNC(=O)CN3CCN(CC(=O)[O-])CCN(CC(=O)[O-])CCN(CC(=O)[O-])CC3)NC(=O)CCCc3ccc(I)cc3)cccc12.[177Lu+3]	–	mouse, U-87 MG tumour xenograft, brain	24 h	0.01 %ID/g
COc1ccc2c(c1)C(C)(C)C(/C=C/C1=C(Oc3ccc(C(=O)NCCCCOc4cc(CN(Cc5ccccn5)Cc5ccccn5)cc(CN(Cc5ccccn5)Cc5ccccn5)c4)cc3)C(=C/C=C3/N(CCCCS(=O)(=O)[O-])c4ccc(OC)cc4C3(C)C)CCC1)=[N+]2CCCCS(=O)(=O)[O-].O=[N+]([O-])[O-].O=[N+]([O-])[O-].[99Tc+].[C-]#[O+].[C-]#[O+].[C-]#[O+].[Zn+2]	–	BALB/c mouse, Staphylococcus aureus myositis, adrenals	12 h	3.66 %ID/g and 6.37 %ID/g and 7.29 %ID/g and 3.2 %ID/g
O=C(O)CCCOc1ccc([18F])cc1-c1cc(-c2ccccc2C(F)(F)F)n(-c2ccccc2)n1	–	mouse, large intestine	intravenous, dose not given, 30 min	0.49 ± 0.06 %ID/g
COc1cccc(OC)c1-c1cc(C(=O)NC2(C(=O)O)C3CC4CC(C3)CC2C4)nn1-c1ccc(C(=O)N(C)CCCN(C)CCCN(C)C(=O)[C@H](CCCCNC(=O)[C@H](CC(C)C)NC(=O)C2OC2C(=O)O)NC(=O)CN2CCN(CC(=O)[O-])CCN(CC(=O)[O-])CCN(CC(=O)[O-])CC2)cc1C(C)C.[177Lu+3] (mixture of isomers)	–	mouse, HT-29 xenograft, liver	24 h post injection	1.9 %ID/g
O=C([O-])CN1CCN(CC(=O)[O-])CCN(CC(=O)[O-])CC1.[44Sc+3]	–	BALB/c mouse, small intestine	intravenous, 1 h	0.17 ± 0.08 %ID/g
COc1ccc(Nc2nc(Nc3ccc(OCCOCC[18F])cc3)ncc2Br)cc1	–	ICR mouse, S180 sarcoma-bearing, blood	intravenous, 370 kBq in 100 µL, 60 min	3.24 ± 0.25 %ID/g
COc1cccc(OC)c1-c1cc(C(=O)NC2(C(=O)O)C3CC4CC(C3)CC2C4)nn1-c1ccc(C(=O)N(C)CCCN(C)C(=O)[C@H](CCCCNC(=O)[C@H](CC(C)C)NC(=O)C2OC2C(=O)O)NC(=O)CN2CCN(CC(=O)[O-])CCN(CC(=O)[O-])CCN(CC(=O)[O-])CC2)cc1C(C)C.[177Lu+3] (mixture of isomers)	–	mouse HT-29 xenograft, large intestine	168 h post injection, biodistribution	0.09 %ID/g
CN(Cc1ccccc1)C(=O)CN1CCN(CC(=O)[O-])CCN(Cc2cccc(C(=O)[O-])n2)CC1.[18F-].[Sc+3]	–	BALB/c mouse, large intestine	intravenous, 1 h	0.07 ± 0.01 %ID/g

Some of these lines once more:
SMILES	test	test system	setting	tissue uptake
COc1cccc(OC)c1-c1cc(C(=O)NC2(C(=O)O)C3CC4CC(C3)CC2C4)nn1-c1ccc(C(=O)N(C)CCOCCOCCN(C)C(=O)[C@H](CCCCNC(=O)[C@H](CC(C)C)NC(=O)C2OC2C(=O)O)NC(=O)CN2CCN(CC(=O)[O-])CCN(CC(=O)[O-])CCN(CC(=O)[O-])CC2)cc1C(C)C.[177Lu+3] (mixture of isomers)	–	mouse, HT-29 xenograft, spleen	168 h post injection	0.59 %ID/g
COc1cccc(OC)c1-c1cc(C(=O)NC2(C(=O)O)C3CC4CC(C3)CC2C4)nn1-c1ccc(C(=O)N(C)CCCN(C)C(=O)[C@H](CCCCNC(=O)[C@H](CC(C)C)NC(=O)C2OC2C(=O)O)NC(=O)CN2CCN(CC(=O)[O-])CCN(CC(=O)[O-])CCN(CC(=O)[O-])CC2)cc1C(C)C.[177Lu+3] (mixture of isomers)	–	mouse HT-29 xenograft, large intestine	168 h post injection, biodistribution	0.09 %ID/g
